Assay results gathered from unrelated publications.
Compare with care: the assays were run in different laboratories.
WRKY6 full length assumed: WRKY6 full length assumed (Arabidopsis thaliana, UniProt Q9C519)
UniProt Q9C519, sequence (whole entry, looked up): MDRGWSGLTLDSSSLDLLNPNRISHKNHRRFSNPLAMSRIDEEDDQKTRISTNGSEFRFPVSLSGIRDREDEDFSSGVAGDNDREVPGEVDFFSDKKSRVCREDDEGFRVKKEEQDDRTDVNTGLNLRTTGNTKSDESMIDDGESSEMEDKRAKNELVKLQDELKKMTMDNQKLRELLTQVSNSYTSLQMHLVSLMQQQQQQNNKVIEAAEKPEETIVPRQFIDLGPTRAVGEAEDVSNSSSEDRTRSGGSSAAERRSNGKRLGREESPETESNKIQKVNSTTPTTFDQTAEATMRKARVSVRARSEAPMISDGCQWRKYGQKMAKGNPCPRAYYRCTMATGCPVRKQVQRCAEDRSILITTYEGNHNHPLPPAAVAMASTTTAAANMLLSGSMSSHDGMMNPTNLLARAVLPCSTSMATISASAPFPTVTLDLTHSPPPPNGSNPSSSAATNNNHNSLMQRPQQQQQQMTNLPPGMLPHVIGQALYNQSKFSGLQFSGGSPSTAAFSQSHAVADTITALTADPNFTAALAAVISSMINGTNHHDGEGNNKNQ
pum: pum 1093-1426 (Drosophila melanogaster, UniProt P25822)
UniProt P25822, sequence (whole entry, looked up): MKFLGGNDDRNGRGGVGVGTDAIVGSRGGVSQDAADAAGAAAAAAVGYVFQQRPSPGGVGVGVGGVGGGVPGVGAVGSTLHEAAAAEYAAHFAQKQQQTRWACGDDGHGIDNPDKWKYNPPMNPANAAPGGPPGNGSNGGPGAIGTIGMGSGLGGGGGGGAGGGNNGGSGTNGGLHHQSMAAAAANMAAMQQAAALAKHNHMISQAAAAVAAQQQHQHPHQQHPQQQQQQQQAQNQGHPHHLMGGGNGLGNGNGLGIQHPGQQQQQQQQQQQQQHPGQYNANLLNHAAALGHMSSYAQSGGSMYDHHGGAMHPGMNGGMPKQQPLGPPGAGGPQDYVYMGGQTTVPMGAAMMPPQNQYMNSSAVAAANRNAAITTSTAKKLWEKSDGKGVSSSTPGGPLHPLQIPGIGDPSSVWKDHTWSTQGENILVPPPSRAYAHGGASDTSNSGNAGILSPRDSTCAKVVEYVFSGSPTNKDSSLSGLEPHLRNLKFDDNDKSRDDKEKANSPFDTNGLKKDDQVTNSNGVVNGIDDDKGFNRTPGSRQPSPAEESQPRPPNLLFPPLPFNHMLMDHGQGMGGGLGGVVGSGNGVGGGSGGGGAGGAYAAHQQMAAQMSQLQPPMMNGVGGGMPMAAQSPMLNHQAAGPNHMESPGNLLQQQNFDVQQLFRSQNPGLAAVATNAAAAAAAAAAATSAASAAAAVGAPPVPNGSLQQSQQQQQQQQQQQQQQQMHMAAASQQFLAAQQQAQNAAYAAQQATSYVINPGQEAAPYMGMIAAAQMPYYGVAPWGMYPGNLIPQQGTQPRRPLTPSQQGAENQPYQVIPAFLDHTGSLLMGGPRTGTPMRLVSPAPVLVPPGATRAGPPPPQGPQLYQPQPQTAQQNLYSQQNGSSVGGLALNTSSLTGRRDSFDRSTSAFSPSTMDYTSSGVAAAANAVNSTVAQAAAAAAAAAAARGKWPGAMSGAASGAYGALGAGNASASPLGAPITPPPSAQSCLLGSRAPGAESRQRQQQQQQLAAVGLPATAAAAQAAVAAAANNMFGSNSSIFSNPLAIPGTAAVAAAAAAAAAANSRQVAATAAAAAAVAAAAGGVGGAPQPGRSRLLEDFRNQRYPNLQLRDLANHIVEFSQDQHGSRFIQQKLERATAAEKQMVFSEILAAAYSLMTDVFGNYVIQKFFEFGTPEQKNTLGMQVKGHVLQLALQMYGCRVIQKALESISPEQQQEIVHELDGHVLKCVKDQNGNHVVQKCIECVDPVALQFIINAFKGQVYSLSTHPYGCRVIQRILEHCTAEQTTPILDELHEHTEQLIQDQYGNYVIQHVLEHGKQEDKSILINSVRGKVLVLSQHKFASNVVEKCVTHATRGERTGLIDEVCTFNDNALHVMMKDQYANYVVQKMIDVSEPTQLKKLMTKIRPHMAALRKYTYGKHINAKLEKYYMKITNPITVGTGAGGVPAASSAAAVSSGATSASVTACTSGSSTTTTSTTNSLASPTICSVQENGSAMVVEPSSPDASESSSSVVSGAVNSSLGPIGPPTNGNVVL
OGG1: OGG1 (Homo sapiens, UniProt O15527)
UniProt O15527, sequence (whole entry, looked up): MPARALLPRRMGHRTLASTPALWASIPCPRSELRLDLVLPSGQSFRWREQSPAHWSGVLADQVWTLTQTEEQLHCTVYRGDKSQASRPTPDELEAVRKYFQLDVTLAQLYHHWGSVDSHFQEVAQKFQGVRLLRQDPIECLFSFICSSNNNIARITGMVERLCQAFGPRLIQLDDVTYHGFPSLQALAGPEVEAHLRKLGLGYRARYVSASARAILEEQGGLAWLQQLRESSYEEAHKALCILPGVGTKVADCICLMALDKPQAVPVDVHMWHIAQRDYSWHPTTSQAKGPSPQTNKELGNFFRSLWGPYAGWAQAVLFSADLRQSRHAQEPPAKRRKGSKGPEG
clp full length assumed: clp full length assumed (Lysobacter enzymogenes, UniProt Q7WZ07)
ELAVL1 full length assumed: ELAVL1 full length assumed (Homo sapiens, UniProt Q15717)
UniProt Q15717, sequence (whole entry, looked up): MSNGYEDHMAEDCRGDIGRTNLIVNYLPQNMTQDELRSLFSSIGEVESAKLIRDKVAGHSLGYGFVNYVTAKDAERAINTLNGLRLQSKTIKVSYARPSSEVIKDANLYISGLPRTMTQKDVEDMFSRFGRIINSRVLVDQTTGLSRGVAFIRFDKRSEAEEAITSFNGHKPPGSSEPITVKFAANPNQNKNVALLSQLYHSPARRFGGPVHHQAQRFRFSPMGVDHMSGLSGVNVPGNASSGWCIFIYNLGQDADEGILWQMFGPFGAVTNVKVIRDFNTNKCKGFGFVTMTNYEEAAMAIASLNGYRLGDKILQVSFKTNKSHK
T1: NFATC1 408-716; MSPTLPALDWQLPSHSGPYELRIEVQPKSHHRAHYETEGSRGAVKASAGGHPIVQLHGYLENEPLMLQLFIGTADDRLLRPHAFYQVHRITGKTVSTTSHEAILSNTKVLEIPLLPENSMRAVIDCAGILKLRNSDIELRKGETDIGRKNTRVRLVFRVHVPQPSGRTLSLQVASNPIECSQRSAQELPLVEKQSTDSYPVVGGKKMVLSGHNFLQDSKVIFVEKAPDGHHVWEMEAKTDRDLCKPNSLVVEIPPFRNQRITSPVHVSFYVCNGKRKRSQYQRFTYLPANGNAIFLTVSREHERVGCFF
UniProt Q8K3Y3, sequence (whole entry, looked up): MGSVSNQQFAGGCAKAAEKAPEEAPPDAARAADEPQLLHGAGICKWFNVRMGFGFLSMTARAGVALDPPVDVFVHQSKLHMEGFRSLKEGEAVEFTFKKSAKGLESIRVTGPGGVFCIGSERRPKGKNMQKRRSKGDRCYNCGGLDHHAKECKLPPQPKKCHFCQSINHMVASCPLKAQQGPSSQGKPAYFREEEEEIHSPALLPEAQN
UniProt P31943, sequence (whole entry, looked up): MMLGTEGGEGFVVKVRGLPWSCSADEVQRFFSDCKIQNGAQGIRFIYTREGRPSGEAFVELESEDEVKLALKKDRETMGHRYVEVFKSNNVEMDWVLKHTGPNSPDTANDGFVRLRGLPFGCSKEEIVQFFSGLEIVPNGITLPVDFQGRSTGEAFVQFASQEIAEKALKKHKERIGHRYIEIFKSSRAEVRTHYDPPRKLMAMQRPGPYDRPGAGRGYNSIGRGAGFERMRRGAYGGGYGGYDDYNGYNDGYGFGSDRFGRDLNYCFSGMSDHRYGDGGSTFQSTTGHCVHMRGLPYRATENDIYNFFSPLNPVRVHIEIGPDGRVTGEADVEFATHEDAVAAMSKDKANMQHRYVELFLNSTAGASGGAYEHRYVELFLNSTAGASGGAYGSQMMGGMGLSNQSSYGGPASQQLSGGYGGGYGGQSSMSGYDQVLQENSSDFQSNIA
UniProt P07814, sequence (whole entry, looked up): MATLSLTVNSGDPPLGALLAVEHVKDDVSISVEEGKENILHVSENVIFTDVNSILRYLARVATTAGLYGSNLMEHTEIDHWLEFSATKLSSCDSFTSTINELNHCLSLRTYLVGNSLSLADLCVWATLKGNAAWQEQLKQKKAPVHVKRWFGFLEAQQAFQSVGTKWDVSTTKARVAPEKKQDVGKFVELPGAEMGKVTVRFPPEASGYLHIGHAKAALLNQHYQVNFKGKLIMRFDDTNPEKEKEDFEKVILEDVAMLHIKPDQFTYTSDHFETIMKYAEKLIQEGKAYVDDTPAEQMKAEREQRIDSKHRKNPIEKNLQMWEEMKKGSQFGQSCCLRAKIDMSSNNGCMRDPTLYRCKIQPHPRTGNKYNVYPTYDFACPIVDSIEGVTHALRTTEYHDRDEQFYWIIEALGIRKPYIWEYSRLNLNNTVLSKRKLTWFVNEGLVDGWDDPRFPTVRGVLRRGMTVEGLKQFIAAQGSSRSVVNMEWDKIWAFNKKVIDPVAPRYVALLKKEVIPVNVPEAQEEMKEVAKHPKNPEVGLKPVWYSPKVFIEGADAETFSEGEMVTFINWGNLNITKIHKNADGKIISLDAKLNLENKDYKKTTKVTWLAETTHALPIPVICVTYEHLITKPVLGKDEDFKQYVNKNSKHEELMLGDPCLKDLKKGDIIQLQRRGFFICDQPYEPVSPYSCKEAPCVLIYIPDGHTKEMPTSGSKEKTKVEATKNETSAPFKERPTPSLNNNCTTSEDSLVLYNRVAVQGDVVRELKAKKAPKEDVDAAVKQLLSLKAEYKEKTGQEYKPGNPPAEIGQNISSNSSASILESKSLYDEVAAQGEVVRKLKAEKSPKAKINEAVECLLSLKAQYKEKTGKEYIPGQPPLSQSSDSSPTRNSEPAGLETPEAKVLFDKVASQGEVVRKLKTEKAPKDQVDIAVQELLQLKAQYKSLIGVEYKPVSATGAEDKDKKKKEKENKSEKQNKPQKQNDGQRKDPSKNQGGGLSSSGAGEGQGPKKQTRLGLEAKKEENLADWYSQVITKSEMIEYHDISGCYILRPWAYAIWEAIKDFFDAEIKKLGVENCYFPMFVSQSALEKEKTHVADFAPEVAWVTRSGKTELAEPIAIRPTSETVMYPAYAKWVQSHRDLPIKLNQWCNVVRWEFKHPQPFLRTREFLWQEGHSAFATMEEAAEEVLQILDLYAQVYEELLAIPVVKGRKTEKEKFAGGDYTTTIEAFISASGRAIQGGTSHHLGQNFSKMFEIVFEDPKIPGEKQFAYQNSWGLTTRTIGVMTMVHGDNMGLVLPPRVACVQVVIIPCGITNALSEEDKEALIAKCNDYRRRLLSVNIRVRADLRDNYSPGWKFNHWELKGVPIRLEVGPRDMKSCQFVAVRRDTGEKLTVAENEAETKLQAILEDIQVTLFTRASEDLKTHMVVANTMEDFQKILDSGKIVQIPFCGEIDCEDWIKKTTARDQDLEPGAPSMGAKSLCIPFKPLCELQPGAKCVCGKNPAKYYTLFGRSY

Strand | target | test | test system | setting | binding
AGGGGGCCGUGGGGUGGGAGCUGGGG (G-quadruplex RNA; G4) | SF3B4 1-424 (Homo sapiens, UniProt Q15427) | EMSA | folded RNA | 100 nM | binds
TTATTCAGCCATCAAAAGTTCACCAATAAT (dsDNA) | WRKY6 full length assumed | EMSA | double-stranded DNA, one strand shown | – | no binding
CAAAGUGCUCAUAGUGCAGGUAGUUUUGGCAUGACUCUACUGUAGUAUGGGCACUUCCAG (structured RNA) | RBFOX1 109-208 (Homo sapiens, UniProt Q9NWB1) | SHAPE footprinting | folded RNA | – | binds
CACGCUCAUGCACACACCCACA (ssRNA) | EPRS1 749-878 (Homo sapiens, UniProt P07814) | EMSA | RNA | – | no binding
CUAGGCGCAGUUGUGUAGCAGUUGAGUAAUGCUGGUUAGCUGUUAAGGUGGCGUGUUGCAGUGCAGAGUGCUUGGCUGUUUCCUGUUUUCUCCCGAUUGCUCCUGUGUAA (RNA; long stem loop) | HNRNPH1 11-188 (Homo sapiens, UniProt P31943) | RNase footprinting | folded RNA | – | binds
ATGAGCGAGATGGAT (dsDNA) | msl-2 520-570 C560G (Drosophila melanogaster, UniProt P50534) | crystal structure | double-stranded DNA, one strand shown | together with: Zn2+ | binds
GCAGAUUGAGGGUCUAUGAUACCACCCGGUACAAAAGAUAUCUGCA (structured RNA) | Lin28a 119-180 (Mus musculus, UniProt Q8K3Y3) | NMR HSQC | folded RNA | together with: Zn2+ | binds
GGGAGACCUAGCCUCAUAUAAUCGUUGUCCAGAAUUGUAUAUAUUCGUAGCAUAAGUUUUCCAAACAUUAUUUUGUUGUCGAAAAUGGGACGGAAGCCAAUUAAGCCGCUA (ssRNA) | pum | EMSA | RNA | – | binds
AGGCGAGUAGGGUAUGCUG (ssRNA) | HNRNPH1 full length assumed (Homo sapiens, UniProt P31943) | UV cross-linking | RNA, S100 | – | binds
TTATTCAGCCATCAAAAGGTGACCAATAAT (dsDNA) | WRKY6 full length assumed | EMSA | double-stranded DNA, one strand shown | – | no binding
CAGCAGCAGCAGCAGCAGCAGCAGCAGCAG (structured DNA; hairpin, 8-oxoG G6) | OGG1 | NaBH4 trapping, SDS-PAGE | folded DNA | – | binds
AAAAUUCAGUUGAUUUCUAAUUUUUUGUUGAUUCCAUUU (ssRNA) | Elavl3 full length assumed (Mus musculus, UniProt Q60900) | EMSA | RNA | – | binds
CAGCAGCAGCAGCAGCAGCAGCAGCAGCAG (dsDNA; blunt 30 bp, 8-oxoG G6) | OGG1 | NaBH4 trapping, SDS-PAGE | double-stranded DNA, one strand shown | – | binds
TTCTAGAAAGAACACGTGTTTCGTATTACT (dsDNA) | Basic helix-loop-helix transcription factor 1-394 (Salvia miltiorrhiza, UniProt A0A0H3Y8V8) | EMSA | double-stranded DNA, one strand shown | – | binds
TTATTCAGCCATCAAAAGTTGACGAATAAT (dsDNA) | WRKY6 full length assumed | EMSA | double-stranded DNA, one strand shown | – | no binding
AGGAAGTTTTCCGCTGGT (dsDNA) | T1, NFATC1 408-716 | EMSA | double-stranded DNA, one strand shown | – | binds

Strand | target | test | test system | setting | binding
GATATTCCAAAGAATGATCCGCGTCGCAGGATAATCGGGCCTGCGCCTTT (dsDNA) | clp full length assumed | competition | double-stranded DNA, one strand shown | – | binds
TTATTCAGCCATCAAAAGTTGATCAATAAT (dsDNA) | WRKY6 full length assumed | EMSA | double-stranded DNA, one strand shown | – | no binding
GGCGGCGGTCTCATCGGTGAAACGGGGCTGGGCGCTCATTTTCTTAAACA (dsDNA) | clp full length assumed | EMSA | double-stranded DNA, one strand shown | – | no binding
GGGUAAUGCCCCUCCCCUCUCACACCUCCGGGAUCAGUGACCGGAGGGCGGUCGGGGAGGGGACACCU (structured RNA (Pyrococcus abyssi); hairpin, internal loop, K-turn) | Uncharacterized protein full length assumed (Pyrococcus abyssi, UniProt Q9V1W8) | EMSA | folded RNA | – | no binding
TTATTCAGCCATCAAAAGTTGACCCATAAT (dsDNA) | WRKY6 full length assumed | EMSA | double-stranded DNA, one strand shown | – | binds
TTTTTTTTTTTTTTTTTTTTTTTTTTTTTTTTTTTTTTTTTTTTT (ssDNA) | DDX41 1-622 (Homo sapiens, UniProt Q9UJV9) | EMSA | single-stranded DNA | – | binds
CUGUAUUUAUCUGUUUAUUUAUACCUAUUUAUGUAUUUAUUUAUUGAAGUGUGAAAUU (ssRNA) | ELAVL1 1-326 (Homo sapiens, UniProt Q15717) | EMSA | RNA | not purified | binds
GCAGGCUGAGGUAGUAGUUUGUGCAGACGAAAGUCUGCACAGGCCACUGCCUUGCCAGC (structured RNA) | Lin28a 119-180 (Mus musculus, UniProt Q8K3Y3) | EMSA | folded RNA | – | no binding
ATGTGTTAGTTGGGGGGTGACTGTTAAAAGTGCATACCGCCAAAAGATAAAATTTGAAATCTG (dsDNA; 2-aminopurine at -1 non-template) | POLRMT/TFB2M 43-1230; 21-396 (Homo sapiens) | 2-AP fluorescence | double-stranded DNA, one strand shown | – | binds
UGGAGAGCUCGCUGCUUCUUCAGGUGUUUCCACUCCUGGU (ssRNA) | ELAVL1 full length assumed | EMSA | RNA | – | binds
GGGGUAGUGAUUUUACCCUGUUUAGGAGAU (structured RNA; terminal loop) | Lin28a 1-209 (Mus musculus, UniProt Q8K3Y3) | UV crosslinking, SDS-PAGE | folded RNA | – | binds
TTATTCAGCCATCAAATGTTGACCATTAAT (dsDNA) | WRKY6 full length assumed | EMSA | double-stranded DNA, one strand shown | – | binds
UGGAGAGCUGGCUGCUUCUUCAGGGGUUUCCACUCCAGGG (ssRNA) | ELAVL1 full length assumed | EMSA | RNA | – | binds
GGGAGACCUAGCCUCAUAUAACGGGGGCCAGAAUUGUAUAUAUUCGUAGCAUAAGUUUUCCAAACAUUAUUGGGGGGUCGAAAAUUGUACAUAAGCCAAUUAAGCCGCUA (ssRNA) | pum | EMSA | RNA | – | binds
CAAACAAAACCGUGUAAAAACAAA (ssRNA) | rnr 82-725 (Mycoplasmoides genitalium, UniProt P47350) | fluorescence polarization | RNA | together with: Mg2+ | binds

Some of these lines once more:
Strand | target | test | test system | setting | binding
CUAGGCGCAGUUGUGUAGCAGUUGAGUAAUGCUGGUUAGCUGUUAAGGUGGCGUGUUGCAGUGCAGAGUGCUUGGCUGUUUCCUGUUUUCUCCCGAUUGCUCCUGUGUAA (RNA; long stem loop) | HNRNPH1 11-188 (Homo sapiens, UniProt P31943) | RNase footprinting | folded RNA | – | binds
ATGAGCGAGATGGAT (dsDNA) | msl-2 520-570 C560G (Drosophila melanogaster, UniProt P50534) | crystal structure | double-stranded DNA, one strand shown | together with: Zn2+ | binds
GCAGAUUGAGGGUCUAUGAUACCACCCGGUACAAAAGAUAUCUGCA (structured RNA) | Lin28a 119-180 (Mus musculus, UniProt Q8K3Y3) | NMR HSQC | folded RNA | together with: Zn2+ | binds
GGGAGACCUAGCCUCAUAUAAUCGUUGUCCAGAAUUGUAUAUAUUCGUAGCAUAAGUUUUCCAAACAUUAUUUUGUUGUCGAAAAUGGGACGGAAGCCAAUUAAGCCGCUA (ssRNA) | pum | EMSA | RNA | – | binds
